Measurements gathered from unrelated publications.
Lines come from different studies, so protocols differ. Values joined by “and” are separate records of one study, mostly repeats; a detail may differ. Numbers after ± are the reported error.

SMILES = N#[11C]c1ccc(-c2csc(NN=C3CCCC3)n2)cc1; test system = C57BL/6 mice, male, spleen; conditions = intravenous, 3 MBq, 5 min; quantity = radioactivity uptake; value = 3.1 ± 0.37 %ID/g
SMILES = O=C1NC2(CC2)COc2ncc(F)cc2[C@H]2COCCN2c2ccn3ncc1c3n2; test system = Sprague-Dawley rat, male, serum; conditions = oral, 5 mg/kg/day, 4 weeks daily, end of treatment; quantity = creatine kinase activity; value = 427 ± 193 U/L
SMILES = CC[C@H](C)[C@H](NC(=O)[C@H](C)NC(=O)CNC(=O)[C@H](CCCCN)NC(=O)[C@@H](NC(=O)[C@H](CC(C)C)NC(=O)[C@H](C)NC(=O)CNC(=O)[C@H](CC(C)C)NC(=O)[C@@H](N)Cc1ccccc1)[C@@H](C)CC)C(=O)N[C@@H](Cc1c[nH]cn1)C(=O)NCC(=O)NCC(=O)N[C@@H](CCCNC(=N)N)C(=O)N[C@@H](Cc1ccccc1)C(=O)N[C@H](C(=O)N[C@@H](Cc1c[nH]cn1)C(=O)NCC(=O)N[C@@H](CCSC)C(=O)N[C@H](C(=O)N[C@@H](CCC(N)=O)C(=O)N[C@@H](CC(N)=O)C(=O)N[C@@H](Cc1c[nH]cn1)C(=O)N[C@@H](Cc1c[nH]cn1)C(N)=O)[C@@H](C)CC)[C@@H](C)CC; test system = zebrafish embryos 4 hpf, E3 medium; conditions = 1 h; quantity = acute toxic concentration; value = 5 µM
SMILES = N=C(N)NCCC[C@@H](NC(=O)[C@H](N)Cc1c[nH]c2ccccc12)C(=O)N[C@H](CCCCN)C(=O)N[C@H](Cc1c[nH]c2ccccc12)C(=O)N[C@H](CCCNC(=N)N)C(=O)N[C@H](CCCCN)C(=O)N[C@H](Cc1c[nH]c2ccccc12)C(=O)N[C@H](CCCNC(=N)N)C(=O)N[C@H](CCCCN)C(=O)N[C@H](Cc1c[nH]c2ccccc12)C(=O)N[C@H](CCCNC(=N)N)C(=O)N[C@H](CCCCN)C(N)=O; test system = mouse; conditions = intraperitoneal, 20 mg/kg single dose, day 1; quantity = survival; value = 100%
SMILES = CC(C)C[C@H](NC(=O)CNC(=O)[C@H](CCC(N)=O)NC(=O)[C@H](CC(C)C)NC(=O)[C@H](CC(C)C)NC(=O)[C@H](CCCNC(=N)N)NC(=O)[C@H](CCC(N)=O)NC(=O)[C@H](CC(C)C)NC(=O)[C@H](CCCNC(=N)N)NC(=O)[C@H](C)NC(=O)CNC(=O)[C@H](CCC(=O)O)NC(=O)[C@H](CCCNC(=N)N)NC(=O)[C@H](CC(C)C)NC(=O)[C@H](CCCNC(=N)N)NC(=O)[C@H](CO)NC(=O)[C@H](CC(C)C)NC(=O)[C@H](CCC(=O)O)NC(=O)[C@H](CO)NC(=O)[C@@H](NC(=O)[C@H](Cc1ccccc1)NC(=O)[C@@H](NC(=O)CNC(=O)[C@H](CC(=O)O)NC(=O)C(C)(C)NC(=O)[C@@H](N)Cc1c[nH]cn1)[C@@H](C)O)[C@@H](C)O)C(=O)N[C@@H](CC(C)C)C(=O)N[C@@H](CCC(N)=O)C(=O)NCC(=O)N[C@@H](CC(C)C)C(=O)N[C@H](C(=O)NCC(=O)N[C@@H](CCCCNC(=O)COCCOCCNC(=O)COCCOCCNC(=O)CC[C@H](NC(=O)CCCCCCCCCCCCCCCCC(=O)O)C(=O)O)C(N)=O)C(C)C; test system = DIO C57BL/6J mice; conditions = sc, 300 nmol/kg twice daily, 8 days; scale = reference: vehicle; quantity = plasma amylase; value = no effect
SMILES = Cc1ccccc1-c1ccc(-c2nc(-c3ccc(CN(C)CCCC(=O)O)c([18F])c3)no2)cc1C(F)(F)F; test system = rat, kidney; conditions = 30 min; quantity = tracer uptake; value = 1.19 %ID/g
SMILES = CN1Cc2cc(Cl)ccc2-n2c(nnc2C2CCN(c3cccc([18F])n3)CC2)C1; test system = C57BL/6 mouse male, urinary bladder; conditions = intravenous, 3.7 MBq, 5 min; quantity = tissue uptake; value = 3.49 ± 0.66 %ID/g
SMILES = C/C(=N\OCCCN1CCCCC1)c1ccc(C(F)(F)F)cc1; test system = mouse, plasma; conditions = oral, 50 mg/kg once daily, day 1; quantity = Cmax; value = 706 ± 145 ng/mL
SMILES = CCCC[C@H]1C(=O)N(C)[C@@H](CCCC)C(=O)N[C@@H](CCCNC(=O)CN2CCN(CC(=O)O)CCN(CC(=O)O)CCN(CC(=O)O)CC2)C(=O)N[C@H](C(=O)NCC(N)=O)CSCC(=O)N[C@@H](Cc2ccc(O)cc2)C(=O)N(C)[C@@H](C)C(=O)N[C@@H](CC(N)=O)C(=O)N2CCC[C@H]2C(=O)N[C@@H](Cc2c[nH]cn2)C(=O)N[C@@H](CC(C)C)C(=O)N(C)CC(=O)N[C@@H](Cc2c[nH]c3ccccc23)C(=O)N[C@@H](CO)C(=O)N[C@@H](Cc2c[nH]c3ccccc23)C(=O)N1C [gallium-68 labelled]; test system = NOD/SCID mice with CHO-hPD-L1 xenograft, blood; conditions = 60 min post injection; quantity = tissue uptake; value = 12.3 ± 1.03 %ID/g
SMILES = C[C@H](O)[C@@H](NC(=O)[C@H]1CCCN1C(=O)[C@@H](CCCCN)NC(=O)[C@@H](CO)NC(=O)[C@@H](Cc1ccc(O)cc1)NC(=O)[C@@H](CC(N)=O)NC(=O)CCOCCOCCOCCNC(=O)CN1CCN(CC(=O)O)CCN(CC(=O)O)CCN(CC(=O)O)CC1)C(=O)N[C@H](CC(=O)O)C(=O)N[C@H](CCCNC(=N)N)C(=O)N[C@H](CCC(N)=O)C(=O)N[C@H](Cc1ccc(O)cc1)C(=O)N[C@H](Cc1c[nH]cn1)C(=O)N[C@H](Cc1ccccc1)C(N)=O [gallium-68 labelled]; test system = BALB/c nude mice U-87 MG tumour, bone; conditions = intravenous, 1.85 MBq, 0.08333 h, radiolabelled; quantity = tissue uptake; value = 2.18 ± 0.11 %ID/g
SMILES = CC(C)(CCCC/C=C/CCCCCC(C)(C)C(=O)O)C(=O)O; test system = ICR mice, both sexes; conditions = oral, dose not given, 0.167 h; quantity = plasma concentration; value = 22300 ng/mL
SMILES = CC[C@H](C)[C@H](NC(=O)[C@H](CCCCN)NC(=O)CNC(=O)[C@H](CC(C)C)NC(=O)[C@H](Cc1ccccc1)NC(=O)[C@H](CCCCN)NC(=O)[C@H](CO)NC(=O)[C@H](Cc1ccccc1)NC(=O)[C@H](Cc1c[nH]c2ccccc12)NC(=O)[C@H](CCC(N)=O)NC(=O)[C@@H](NC(=O)[C@H](Cc1ccccc1)NC(=O)CCCCCNC(=O)CN1CCN(CC(=O)O)CCN(CC(=O)O)CCN(CC(=O)O)CC1)C(C)C)C(=O)N[C@@H](CCC(=O)O)C(=O)N1CCC[C@H]1C(=O)N[C@@H](CC(=O)O)C(=O)N[C@H](C(=O)N[C@@H](CO)C(=O)N[C@@H](CCC(N)=O)C(=O)N[C@H](C(=O)N[C@@H](CCC(N)=O)C(=O)N[C@@H](CC(=O)O)C(=O)N1CCC[C@H]1C(=O)N[C@@H](CC(N)=O)C(=O)N[C@@H](CC(=O)O)C(=O)N[C@@H](CCC(N)=O)C(=O)N[C@@H](Cc1ccc(O)cc1)C(=O)N[C@@H](CCC(=O)O)C(=O)N1CCC[C@H]1C(=O)N[C@@H](Cc1ccccc1)C(=O)O)C(C)C)C(C)C [copper-64 labelled]; assay = dynamic PET; test system = mouse, CT26 tumour, checkpoint inhibitor-treated, tumour; conditions = intravenous, 100 µCi/mouse, 1740 s; quantity = SUVmean; value = 3.69 SUV
SMILES = CSCC[C@H](NC(=O)[C@@H](NC(=O)[C@H](CC(C)C)NC(=O)[C@@H](NC(=O)[C@H](Cc1c[nH]cn1)NC(=O)CCCCCNC(=O)[C@H](CCCNC(=N)N)NC(=O)[C@H](CCCNC(=N)N)NC(=O)[C@H](CCCNC(=N)N)NC(=O)[C@H](CCC(N)=O)NC(=O)[C@H](CCCNC(=N)N)NC(=O)[C@H](CCCNC(=N)N)NC(=O)[C@H](CCCCN)NC(=O)[C@H](CCCCN)NC(=O)[C@H](CCCNC(=N)N)NC(=O)CNC(=O)[C@@H](N)Cc1ccc(O)cc1)C(C)C)C(C)C)C(=O)N[C@@H](CS)C(=O)N[C@@H](C)C(=O)N[C@H](C(N)=O)[C@@H](C)O; test system = C57BL/6J mice; conditions = Alzet osmotic pump, 3 mg/kg, 8 weeks; quantity = MCHC; value = 31.3 g/dL and 30.7 g/dL and 30.3 g/dL
SMILES = CCCCCCCCCCCCCCCC(=O)NCCCC[C@H](NC(=O)[C@H](CCC(=O)O)NC(=O)[C@H](Cc1ccc(O)cc1)NC(=O)[C@H](CCC(=O)O)NC(=O)COCC(=O)NCCCOCCOCCOCCCNC(=O)[C@H](Cc1ccccc1)NC(=O)[C@H](CC(N)=O)NC(=O)[C@H](Cc1c[nH]cn1)NC(=O)[C@@H](NC(=O)[C@H](CC(=O)O)NC(=O)[C@H](CCC(N)=O)NC(=O)[C@H](CC(C)C)NC(=O)[C@H](CCCCN)NC(=O)[C@H](CCCCN)NC(=O)[C@H](CCCNC(=N)N)NC(=O)[C@H](CC(C)C)NC(=O)[C@H](Cc1c[nH]c2ccccc12)NC(=O)[C@H](CCC(=O)O)NC(=O)[C@@H](NC(=O)[C@H](CCCNC(=N)N)NC(=O)[C@H](CCC(=O)O)NC(=O)[C@H](CCSC)NC(=O)[C@H](CO)NC(=O)[C@H](CC(N)=O)NC(=O)[C@H](CC(C)C)NC(=O)[C@H](Cc1c[nH]cn1)NC(=O)[C@H](CCCCN)NC(=O)CNC(=O)[C@H](CC(C)C)NC(=O)[C@H](CC(N)=O)NC(=O)[C@H](Cc1c[nH]cn1)NC(=O)[C@H](CCSC)NC(=O)[C@H](CC(C)C)NC(=O)[C@H](CCC(N)=O)NC(=O)[C@@H](NC(=O)[C@H](CCC(=O)O)NC(=O)[C@H](CO)NC(=O)[C@@H](NC(=O)[C@@H](N)CO)C(C)C)[C@@H](C)CC)C(C)C)C(C)C)C(=O)N[C@@H](CCC(=O)O)C(=O)N[C@@H](Cc1ccc(O)cc1)C(=O)N[C@@H](CCC(=O)O)C(N)=O; assay = ELISA; test system = female CD-1 mice, blood plasma; conditions = subcutaneous, 10 nmol/kg, 2 h; quantity = plasma concentration; value = 25.5 nM
SMILES = Cc1n[nH]c(C)c1CCCOc1cc(OCCCCCCNCCOCCOCCn2cc(CNc3ccc(C(=O)O)cc3)nn2)cc(C(=O)O)c1; test system = male Sprague Dawley rat, CSF and plasma; conditions = subcutaneous, 15 µmol/kg, 30 min; quantity = CSF to plasma ratio; value = 1.2 and 1.5
SMILES = CC(C)[C@@H]1NC(=O)CNC(=O)[C@H](CC(N)=O)NC(=O)[C@H](CCCNC(=N)N)NC(=O)[C@H](Cc2ccc(O)cc2)NC(=O)[C@H](C(C)C)NC(=O)[C@@H](NC(=O)[C@@H](NC(=O)[C@H](CC(N)=O)NC(=O)[C@H](Cc2c[nH]c3ccccc23)NC(=O)[C@H](C)NC(=O)[C@H](Cc2ccccc2)NC(=O)CNC(=O)[C@H](CCCCN)NC(=O)[C@H](Cc2ccccc2)NC(=O)[C@H](Cc2ccccc2)NC(=O)[C@H](CCCCN)NC(=O)OCC2c3ccccc3-c3ccccc32)C(C)C)CSSC[C@@H](C(=O)N[C@@H](Cc2c[nH]cn2)C(=O)N[C@@H](CCCNC(=N)N)C(=O)N[C@@H](CCCNC(=N)N)C(=O)N[C@@H](C)C(=O)N[C@@H](CC(N)=O)C(N)=O)NC(=O)[C@H](C(C)C)NC(=O)[C@H](CCCNC(=N)N)NC1=O; assay = HPLC; test system = trypsin buffer; conditions = 4.00 h, 37 °C, with: trypsin 1 % w/v; quantity = peptide remaining; value = 49.6% and 42.8% and 39.8%
SMILES = CCCCCCCCCCCCCCCC(=O)N[C@@H](CCC(=O)NCCOCCOCCC(=O)NCCOCCOCCC(=O)NCCCC[C@H](NC(=O)[C@H](CC(=O)O)NC(=O)[C@H](CC(C)C)NC(=O)[C@H](Cc1ccc(O)cc1)NC(=O)[C@H](CCCCN)NC(=O)[C@H](CO)NC(=O)[C@H](Cc1ccc(O)cc1)NC(=O)[C@H](CC(=O)O)NC(=O)[C@H](CO)NC(=O)[C@@H](NC(=O)[C@H](Cc1ccccc1)NC(=O)[C@@H](NC(=O)CNC(=O)[C@H](CCC(N)=O)NC(=O)[C@@H](CO)NC(=O)[C@@H](N)Cc1c[nH]cn1)[C@@H](C)O)[C@@H](C)O)C(=O)N[C@@H](CCCNC(=N)N)C(=O)N[C@@H](CCCNC(=N)N)C(=O)N[C@@H](C)C(=O)N[C@@H](CCC(N)=O)C(=O)N[C@@H](CC(=O)O)C(=O)N[C@@H](Cc1ccccc1)C(=O)N[C@H](C(=O)N[C@@H](CCC(N)=O)C(=O)N[C@@H](Cc1c[nH]c2ccccc12)C(=O)N[C@@H](CC(C)C)C(=O)N[C@@H](CC(C)C)C(=O)N[C@@H](CC(N)=O)C(=O)N[C@H](C(=O)NCC(=O)NCC(=O)N1CCC[C@H]1C(=O)N[C@@H](CO)C(=O)N[C@@H](CO)C(=O)NCC(=O)N[C@@H](C)C(=O)N1CCC[C@H]1C(=O)N1CCC[C@H]1C(=O)N1CCC[C@H]1C(=O)N[C@@H](CO)C(N)=O)[C@@H](C)O)C(C)C)C(=O)O; assay = item: ALT; test system = Sprague-Dawley rat, female; conditions = subcutaneous, 500 µg/kg once daily, 14 days; quantity = serum enzyme activity; value = 25.8 ± 6.7 U/L

A few entries again:
SMILES = Cc1n[nH]c(C)c1CCCOc1cc(OCCCCCCNCCOCCOCCn2cc(CNc3ccc(C(=O)O)cc3)nn2)cc(C(=O)O)c1; test system = male Sprague Dawley rat, CSF and plasma; conditions = subcutaneous, 15 µmol/kg, 30 min; quantity = CSF to plasma ratio; value = 1.2 and 1.5
SMILES = CC(C)(CCCC/C=C/CCCCCC(C)(C)C(=O)O)C(=O)O; test system = ICR mice, both sexes; conditions = oral, dose not given, 0.167 h; quantity = plasma concentration; value = 22300 ng/mL
